Literature values that unrelated publications cite.
Numbered parts are unrelated; values within a part may stem from several laboratories. Numbers after ± are the reported error.

Series 1 — target: COX-2
SMILES | IC50 [nM]
O=C(O)COc1ccc(Br)cc1/C=N/NC(=O)CNc1ccc(Cl)cc1 | 90 ± 10
O=C(O)COc1ccc(Br)cc1/C=N/NC(=O)CNc1ccccc1 | 80 ± 10
O=C(O)COc1ccccc1/C=N/NC(=O)CNc1ccc(Cl)cc1 | 70 ± 10
Cc1ccc(C(=O)N/N=C/c2cc(Br)ccc2OCC(=O)O)cc1 | 70 ± 10
Cc1ccc(NCC(=O)N/N=C/c2cc(Br)ccc2OCC(=O)O)cc1 | 60 ± 10

Mixed results
SMILES | tested on | assay | conditions | how to read | measurement | result
CC(C)(C)C(=O)NC(C(=O)NO)c1ccc(-c2cc(F)c(F)c(F)c2)cc1 (stereo not shown) | Plasmodium falciparum aminopeptidase M1 | inhibitor | – | – | Ki | 78 nM
CN(C)CCCOc1cc(F)c(-c2c(Cl)nc3ncnn3c2NCC2(C)N=N2)c(F)c1 | HEK293 | – | 1 µM, 4 h, unit not given | relative to: vehicle (DMSO) | acetylated α-tubulin level | 10.5 ± 0.4
Cc1ccc(C(C)C)c(O)c1/C=N/NC(=O)c1cc(-c2ccccc2)[nH]n1 | COX-2 | – | – | – | IC50 | 43 nM
C[C@@H](Nc1c(-c2c(F)cc(C#CCCO)cc2F)c(Cl)nc2ncnn12)C(C)(C)C | HEK293 | – | 1 µM, 4 h, unit not given | relative to: vehicle (DMSO) | acetylated α-tubulin level | 3.67 ± 0.34
CC(C)C[C@H](NC(=O)OCc1ccccc1)C(=O)N[C@@H](C[C@@H]1CCNC1=O)C(O)S(=O)(=O)O (stereo partly shown) | Replicase polyprotein 1ab, 3C-like proteinase (Feline coronavirus, UniProt Q98VG9) | enzyme activity, inhibitor, FRET | – | – | IC50 | 490 ± 70 nM

Excerpt of the above (series 1):
SMILES | IC50 [nM]
Cc1ccc(NCC(=O)N/N=C/c2cc(Br)ccc2OCC(=O)O)cc1 | 60 ± 10
